Results pooled from the literature.
A part holds a random share of what one study measured. Changes are numbered by the printed parent chain.

Sample 1
Target: RING finger protein unkempt homolog, zinc fingers 1-6, GST-SBP tag (UNK, Homo sapiens, UniProt Q9C0B0, residues 30-357)
Chain of UniProt Q9C0B0 (30-357, looked up): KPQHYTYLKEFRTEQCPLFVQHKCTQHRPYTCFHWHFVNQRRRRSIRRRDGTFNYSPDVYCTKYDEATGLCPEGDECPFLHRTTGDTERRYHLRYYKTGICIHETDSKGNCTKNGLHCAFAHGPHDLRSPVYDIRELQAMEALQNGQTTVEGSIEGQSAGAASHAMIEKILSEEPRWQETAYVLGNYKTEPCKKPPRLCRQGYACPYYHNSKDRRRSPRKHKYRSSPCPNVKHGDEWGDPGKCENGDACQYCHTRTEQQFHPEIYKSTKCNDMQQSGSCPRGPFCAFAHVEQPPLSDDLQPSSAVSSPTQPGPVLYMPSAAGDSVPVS
Technique: RNA Bind-n-Seq
Form: RNA
Sample: in vitro
Tested at: not given
Setting: RNA with constant flanks, ends assumed
Baseline: input RNA pool
Reading: higher = stronger binding
All sequences stand within: GGGAGUUCUACAGUCCGACGAUC … CAACAGAGGAUUGAGCAUCA
For `UACCAUAAUCAAAAGUUUGAAAUAUCCUGUUUCUUAAAUAAUGAGAACAUUAAUCACAUUCCGCAAGCAUUUGUACAUUCAAACCUGGAUAUUAAAGUGAAAUGAUUACUUUGAAUCACU`, the bound/input enrichment was 0.18 ratio.
For `ACUUGUUGUGUGUGUGCGUGUGUGUGUGUGUGUGUGUGUGUGUGUGUGUGUUCUGUACCCACCCGGAUUUGUUUAGGUGCCCAUUGCAUCUUUUUGUGCUAUGGAGUUGUUUACAUUAAG`, the bound/input enrichment was 1.43 ratio.
`AGUAGCUCCGCCUGAAGAACUGUUUGCCAAUUCUGCUGAAGGAGAAUUCAGUGCACUCUGCCGCUAUCUAUCUUUACCCACAAAUUUGUUCCUGCUUUUCCAGGAAUAUUGGGAUACCAU` has a bound/input enrichment of 0.304 ratio.
The bound/input enrichment of `CGUGGAAAUAUUGUCUAUAUUCACAUAAGAGAUAAGACAUGGGAUGUUCAUGAGUAUUUGAACCGUCUUUUCGAAGAAUUAAAAUCUUGGAGAGAUGUAUACUGGCGAUUGUGGGGAACA` is reported as 0.253 ratio.
`UUAGCUUUGUUAAAUGUAGCAACUCAGGGAGUUCAUUUAUGGGACUUGCAAGACAGAGUUUCCGUAAGGAAAUAUCAAGGUGUUACCCAAGGGUUUUAUACAAUCCACUCGUGUUUUGGA` has a bound/input enrichment of 0.311 ratio.
For `UGCAUGCUGCUGUUUGUGUUUGGCUUUGUUGGCGGGGCGGUGGUCAUUAAUUCUGCGAUCUCCGUAUCUCUCUCUGUUUUGCUGCUUGUGCACUUUUCUAUUUCUACCGGGGUGCCAGCG`, the bound/input enrichment was 0.279 ratio.

Sample 2
Target: CCNB2, cyclin fold, Cln2 fusion (human)
Technique: yeast growth competition, sequencing
Sample: yeast
Setting: weak parent motif
Baseline: not given
Reading: higher = stronger binding
Starting sequence: ORC1 docking peptide (human); PRARKRLELGNLG
`R4P`: “normalised enrichment score” 0.298.
`R4D` — result for “normalised enrichment score”: 0.0258.
For `N11W`, “normalised enrichment score” read 0.327.
For `R6L`, “normalised enrichment score” read 1.29.
`L7R`: “normalised enrichment score” 0.795.
`N11S` — result for “normalised enrichment score”: 0.669.
Under “normalised enrichment score”, `A3F` is recorded as 0.646.
Under “normalised enrichment score”, `R4L` is recorded as 0.198.
For `L7S`, “normalised enrichment score” read 0.804.
`E8F`: “normalised enrichment score” 0.501.

Sample 3
Target: RNA binding protein fox-1 homolog 2, RRM domain, GST-SBP tag (RBFOX2, Homo sapiens, UniProt O43251-10, residues 100-194)
Technique: RNA Bind-n-Seq
Form: RNA
Sample: in vitro
Tested at: 365 nM
Setting: natural RNA segment, single round, ends assumed
Baseline: no-protein control
Reading: higher = stronger binding
All sequences stand within: GGGAGUUCUACAGUCCGACGAUC … UGGAAUUCUCGGGUGCCAA
Target sequence (chain): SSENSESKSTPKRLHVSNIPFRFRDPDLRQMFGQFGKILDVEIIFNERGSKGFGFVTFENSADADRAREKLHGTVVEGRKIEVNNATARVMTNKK
For `GAAUAUAUUGCUGUUUAUUUUUCUAUGUUCUGUUUCGUAGCCUUAAGAAGUGUUUCAAACGAUCUGAAUGUAUAAAACAAGUCAAUGCCCUACAUGGUGUGAUGCUGCAU`, “RBNS enrichment (R)” read 0.518.
Under “RBNS enrichment (R)”, `GAUGUAGAUUCGUCCUUUAUUGGUAGUCGCAGUUGAUAUUUCAAGAGAGUGAGAUGCCAUGCUGACAAUAUUAAGAUCUAUUUGAAUAUUUAGAAAUGUCUUACUGUAUA` is recorded as 0.456.
For `AACGUACUCACCGCCGCGGACAAUCCCCCACCCCGAUCCCUCGCCAGACCAGGACGCUUCCUCAAGCCCAGCCUUCUACAGAGAGUGUGAACGGUACAGCCCCGGCCUGA`, “RBNS enrichment (R)” read 0.194.
`GGAGGACCUUUCCUUGGGGCCCUGCUUCAUGACGAUGCUGCCUGUGUCACCCUCUACCAUCUGUAAACAACUGGGUGCCUUCCCCGACCACACCCCAAUGCCUUCCCAGC`: “RBNS enrichment (R)” 0.514.
`UUUGUCUGAAUGUGAAAUAUCCCCCAUUUUAUCCCAUAAAUCAUUUGUUUUCCAAUGAUGUGUAUUUGGGGGGAAGGGAGGAUUGCUUGUAAUCUGGUGUUGAACAACUA`: “RBNS enrichment (R)” 0.5.
For `CAAUUAGUCCAUACAUCCAUAAGCCUGAUGAGUUGAAAUUGCAGUUUGAGAAGUGAAUUAACCUUACAUCCCUUUGUUCAGAUACCUUAAAAGUUACUUUAUUUAAAAGC`, “RBNS enrichment (R)” read 0.781.
`CAGUGAGGAAAGGCUGCUGUCAUGGUGUGGCCCUGCCUCACUGUCAAUAUCUGUUUUCUCUGGAGAGUCCACCAGUGACCCAAGCUCUCCCUGCCAGCCUCCUGUGUCAA` — result for “RBNS enrichment (R)”: 0.354.
Under “RBNS enrichment (R)”, `UUUCCUAUCUAGAGAUGGAAGAGGGGCCAGUCAUCAGGCUAGUCACAAAGCUCAAUAAAUAUCCAUUACUCUGCUCAGAGUGUUGAGAGAGAAGCCCUAAUUAACAACGU` is recorded as 0.423.
`AACUUCGGGGGUCGUUCUGUGCCUUCCAGCAUCUUGUACAGCAAAUCCUGACUCGUGUCUUUUUACCCCCAAGAUAUCUGUCUUCAGUAGCGACUGAAUCUGCCACUCUC` — result for “RBNS enrichment (R)”: 2.3.
`GUAAUUUAGCUGAGAGAAUUCUUUUUCCCAACAGUGAAACAAGUGGGCCUCCUAGAAACUUUAUUGCAGAGAUGACUGGAGGCCAUUGGUGUUUCCAGGAGAGCUAGCAU` — result for “RBNS enrichment (R)”: 2.9.
Under “RBNS enrichment (R)”, `CCUCUUGAUGAAAUGGACAUAUUAUAUAUUUCUGCCACCUGGAUUUUCCUGGAUAAUUUGAUGGAAUAUUUUAAGUUUCAGUAAAUCAGAACAAUAAACAAACUCAGAUA` is recorded as 0.464.
`UAUUGUGGGUACUUUUGUGUGCUCAUUUGUGUUUUCCCCCCCUCCUACAACAUUUUUUUAACCCCAAAAUUAUAGCCUGAAUGUUCGCUUUUAGUCUGGCCAGGGAUCUG`: “RBNS enrichment (R)” 0.656.

Other studies, line by line
For `PhoQ, residues 284 288 289 292 302 303 TSTLRA`, the fold induction was 8.6 (PhoP, residues 12 14 15 18 19 IQFRS (Escherichia coli, UniProt P23836); Sort-seq, measured: YFP reporter; E. coli; PhoQ-PhoP variant library, together with: 10 µM Mg2+; baseline: high Mg2+ state, higher = stronger signaling).

For quick reference, copied from above (sample 1):
`AGUAGCUCCGCCUGAAGAACUGUUUGCCAAUUCUGCUGAAGGAGAAUUCAGUGCACUCUGCCGCUAUCUAUCUUUACCCACAAAUUUGUUCCUGCUUUUCCAGGAAUAUUGGGAUACCAU` has a bound/input enrichment of 0.304 ratio.
For `ACUUGUUGUGUGUGUGCGUGUGUGUGUGUGUGUGUGUGUGUGUGUGUGUGUUCUGUACCCACCCGGAUUUGUUUAGGUGCCCAUUGCAUCUUUUUGUGCUAUGGAGUUGUUUACAUUAAG`, the bound/input enrichment was 1.43 ratio.
For `UACCAUAAUCAAAAGUUUGAAAUAUCCUGUUUCUUAAAUAAUGAGAACAUUAAUCACAUUCCGCAAGCAUUUGUACAUUCAAACCUGGAUAUUAAAGUGAAAUGAUUACUUUGAAUCACU`, the bound/input enrichment was 0.18 ratio.
